Assay results pooled from the literature.
Target: Serine/threonine-protein kinase 25 (STK25, Homo sapiens, UniProt O00506)
Sequence of UniProt O00506 (whole entry, looked up): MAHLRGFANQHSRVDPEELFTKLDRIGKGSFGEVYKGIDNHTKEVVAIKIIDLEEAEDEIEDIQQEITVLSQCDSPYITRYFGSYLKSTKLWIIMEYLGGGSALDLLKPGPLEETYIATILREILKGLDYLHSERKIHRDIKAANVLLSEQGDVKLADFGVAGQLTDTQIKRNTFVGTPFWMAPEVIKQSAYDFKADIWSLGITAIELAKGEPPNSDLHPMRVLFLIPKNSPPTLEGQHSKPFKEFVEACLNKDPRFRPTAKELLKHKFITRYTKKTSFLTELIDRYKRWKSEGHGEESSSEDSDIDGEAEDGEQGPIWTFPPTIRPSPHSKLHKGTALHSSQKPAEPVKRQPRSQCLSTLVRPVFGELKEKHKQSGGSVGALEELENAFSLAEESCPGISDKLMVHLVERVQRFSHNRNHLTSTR

CC(C)=CC1OC(C)(C)C2C=C3C(=O)C(Cl)=CC(O)C3C3C(O)C4OC4C(=O)C132 (centres unmarked)  remaining binding (cell-free assay, competition with immobilised ligand; 10 µM): 86%
C=CC(=O)Nc1cccc(-c2cnc3[nH]cc(C(=O)NC(C)(C)C)c3n2)c1  inhibition (enzyme activity, inhibitor; 0.1 µM): 10%
COc1cc(Nc2nccc(-c3cnn4nc(OC)ccc34)n2)cc(C(F)(F)F)c1  remaining binding (binding, competition with immobilised ligand; 1 µM): 95%
Cc1cccc(O[C@H]2CCC[C@@H](C(C)CNCc3ccncc3)C2)c1 (relative stereo)  inhibition (enzyme activity, inhibitor; 1 µM): 0%
C=CC(=O)N1CCCC(n2c(=O)c3ncccc3n(Cc3ccc(Oc4ccccc4)cc3)c2=O)C1 (centres unmarked)  remaining binding (cell-free assay, competition with immobilised ligand; 1 µM): 100%
CNC1C[S+]2CC[S+]3CC[S+](C1)[Ru-4]321([N]=C=S)[n]2c3ccc(OC)cc3c3c4c(c5cc(F)c[n+]1c5c32)C(=O)NC4=O (centres unmarked)  remaining binding (KinomeScan; 0.1 µM; baseline: untreated): 98%
C=CC(=O)Nc1cc(-c2nn(C3CCN(CCNC(=O)[C@H](C)CCC45CC6CC(CC(C6)C4)C5)CC3)c3ncnc(N)c23)ccc1Oc1ccccc1  inhibition (inhibitor, KiNativ profiling; biochemical; 2 µM): -67.8%
Nc1ncc2c(n1)-c1c([nH]c3ccc(C4=CCOCC4)cc13)CCC2  remaining binding (binding, competition with immobilised ligand; 1 µM): 100%
CCN1CCN(Cc2ccc(NC(=O)c3ccc(C)c(NC(=O)c4cncc(-c5cnn(C)c5)c4)c3)cc2C(F)(F)F)CC1  remaining binding (binding, competition with immobilised ligand; 1 µM): 74%
CCN1CCN(Cc2ccc(C(=O)Nc3ccc(C)c(NCc4cnc5[nH]ccc5c4OC)c3)cc2C(F)(F)F)CC1  remaining binding (binding, competition with immobilised ligand; 1 µM): 67%
Cc1ccc(-c2c(/C=C(\C#N)C(=O)NC(C)C)n(CCCO)c3ncnc(N)c23)cc1  remaining binding (cell-free assay, competition with immobilised ligand; 1 µM): 100%
NC(=O)[C@@H](O)C[C@H]1CCc2sc3ncnc(O[C@H]4CC[C@H](N5CCOCC5)CC4)c3c21  inhibition (enzyme activity, inhibitor; 10 µM): 8%
Cc1cnc2nc1Nc1cccc(c1)COC/C=C/COCc1cc(ccc1OCCN1CCOCC1)N2  remaining binding (binding, competition with immobilised ligand; 0.1 µM): 100%
O=C(Cc1ccc(OCc2ccccc2)cc1)NC1(C(=O)O)CCN(C(=O)c2ccc(-c3cccc(Cl)c3)cc2)CC1  activity vs control (enzyme activity, inhibitor; 10 µM): 101%

Repeated from above:
Cc1cnc2nc1Nc1cccc(c1)COC/C=C/COCc1cc(ccc1OCCN1CCOCC1)N2  remaining binding (binding, competition with immobilised ligand; 0.1 µM): 100%
COc1cc(Nc2nccc(-c3cnn4nc(OC)ccc34)n2)cc(C(F)(F)F)c1  remaining binding (binding, competition with immobilised ligand; 1 µM): 95%
